Measured values pooled from the literature.
Compare with care: the assays were run in different laboratories. ≈ marks a conversion by molar mass, not a printed value.

For `CCC/C(=C\C1=C(C(F)(F)F)C(=O)c2ccccc2C1=O)C(=O)N(CC)CC`, the thermodynamic solubility was 81 µg/mL (FeSSIF; 24 h, 37 °C).
For `C[C@@H]1CC[C@@H]([C@@](O)(CNCc2ccc(F)cc2)COCc2ccc(F)cc2)[C@H](OCc2ccc(F)cc2)C1`, the kinetic solubility was 197 µM (≈ 104 µg/mL) (PBS; 2 h, pH 7.4).
`O=C(CNc1cccc(S(=O)(=O)N2CCOCC2)c1)Nc1ccc(F)c(Cl)c1` has a kinetic solubility of 187 µM (≈ 80 µg/mL) (water).
`COc1ccc(CNC[C@](O)(COCc2ccccc2)[C@@H]2CC[C@@H](C)C[C@H]2OCc2ccccc2)cc1` gave a kinetic solubility of 3.2 µM (≈ 1.61 µg/mL) (PBS; 2 h, pH 7.4).
`Cc1ccc(NCC(=O)Nc2ccc(F)cc2)cc1S(=O)(=O)N1CCOCC1` has a kinetic solubility of over 250 µM (water).
`CCC/C(=C\C1=C(F)C(=O)c2ccccc2C1=O)C(=O)N(CC)CC` has a thermodynamic solubility of 50 µg/mL (FeSSIF; 24 h, 37 °C).
With `C[C@@H]1CC[C@@H]([C@](O)(COCc2ccccc2)Cn2cnc3ccccc32)[C@H](OCc2ccccc2)C1` the kinetic solubility was 1.6 µM (≈ 0.775 µg/mL) (PBS; 2 h, pH 7.4).
The thermodynamic solubility of `Cc1cnc(Nc2cc(C)c(C)c(C)c2)nc1Nc1ccc2oc(=O)[nH]c2c1` is reported as 0.03 µM (aqueous buffer; pH 7.4).
For `C[C@@H]1CC[C@@H]([C@@](C)(O)Cn2ccnc2)[C@H](OCc2ccccc2)C1`, the kinetic solubility was 3.7 µM (≈ 1.22 µg/mL) (PBS; 2 h, pH 7.4).
`Cc1ccc(NC(C)(C)C(=O)Nc2ccc(F)c(Cl)c2)cc1S(=O)(=O)N1CC2(COC2)C1` gave a kinetic solubility of 167 µM (≈ 80.5 µg/mL) (water).
With `CCNCC#CCNc1ccnc2cc(Cl)ccc12` the thermodynamic solubility was 1350 µM (PBS; pH 7.4).
For `Cc1ccc(NCC(=O)Nc2ccc(F)c(Cl)c2)cc1S(=O)(=O)N1CC2CCC(C1)O2`, the kinetic solubility was 79 µM (≈ 37 µg/mL) (water).
With `C[C@@H]1CC[C@@H]([C@@](O)(CNCc2ccccc2F)COCc2ccccc2)[C@H](OCc2ccccc2)C1` the kinetic solubility was 0.6 µM (≈ 0.295 µg/mL) (PBS; 2 h, pH 7.4).
The thermodynamic solubility of `CCC/C(=C\C1=C(OC)C(=O)c2ccccc2C1=O)C(=O)NOC` is reported as 385 µg/mL (FaSSIF; 24 h, 37 °C).
With `Cc1ccc(NCC(=O)Nc2cnccn2)cc1S(=O)(=O)N1CCOCC1` the kinetic solubility was 55 µM (≈ 21.5 µg/mL) (water).

Repeated from above:
`CCC/C(=C\C1=C(F)C(=O)c2ccccc2C1=O)C(=O)N(CC)CC` has a thermodynamic solubility of 50 µg/mL (FeSSIF; 24 h, 37 °C).
